Results collected from several papers.
Every numbered part comes from another study and shows a few of its results, in no order.
UniProt Q13976, sequence (whole entry, looked up): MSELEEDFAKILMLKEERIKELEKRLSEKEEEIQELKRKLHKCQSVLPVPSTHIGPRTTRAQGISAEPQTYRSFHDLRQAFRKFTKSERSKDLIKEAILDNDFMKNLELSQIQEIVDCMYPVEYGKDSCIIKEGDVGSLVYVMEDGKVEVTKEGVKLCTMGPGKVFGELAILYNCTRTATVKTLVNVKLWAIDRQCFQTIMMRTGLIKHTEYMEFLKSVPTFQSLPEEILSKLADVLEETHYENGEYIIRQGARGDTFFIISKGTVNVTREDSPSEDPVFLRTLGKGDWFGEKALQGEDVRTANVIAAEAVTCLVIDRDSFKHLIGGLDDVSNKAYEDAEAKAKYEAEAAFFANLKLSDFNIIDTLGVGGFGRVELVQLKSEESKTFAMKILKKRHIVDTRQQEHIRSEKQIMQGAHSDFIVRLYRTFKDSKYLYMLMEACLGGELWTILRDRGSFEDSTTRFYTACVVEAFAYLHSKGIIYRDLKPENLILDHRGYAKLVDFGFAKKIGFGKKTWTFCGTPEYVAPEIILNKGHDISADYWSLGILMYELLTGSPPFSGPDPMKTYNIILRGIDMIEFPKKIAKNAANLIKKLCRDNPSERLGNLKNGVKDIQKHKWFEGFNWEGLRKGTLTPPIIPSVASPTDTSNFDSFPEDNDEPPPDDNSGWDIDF
UniProt P48729, sequence (whole entry, looked up): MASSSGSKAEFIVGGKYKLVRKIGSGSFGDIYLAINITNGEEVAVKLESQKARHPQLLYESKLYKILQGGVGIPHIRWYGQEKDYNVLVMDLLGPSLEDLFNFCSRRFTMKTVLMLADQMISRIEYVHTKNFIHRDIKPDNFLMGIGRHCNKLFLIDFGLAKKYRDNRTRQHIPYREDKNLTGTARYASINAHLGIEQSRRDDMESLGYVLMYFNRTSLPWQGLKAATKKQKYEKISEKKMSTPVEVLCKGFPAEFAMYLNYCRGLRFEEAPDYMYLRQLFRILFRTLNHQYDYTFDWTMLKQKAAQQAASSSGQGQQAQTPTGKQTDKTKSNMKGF
UniProt Q9Y616, sequence (whole entry, looked up): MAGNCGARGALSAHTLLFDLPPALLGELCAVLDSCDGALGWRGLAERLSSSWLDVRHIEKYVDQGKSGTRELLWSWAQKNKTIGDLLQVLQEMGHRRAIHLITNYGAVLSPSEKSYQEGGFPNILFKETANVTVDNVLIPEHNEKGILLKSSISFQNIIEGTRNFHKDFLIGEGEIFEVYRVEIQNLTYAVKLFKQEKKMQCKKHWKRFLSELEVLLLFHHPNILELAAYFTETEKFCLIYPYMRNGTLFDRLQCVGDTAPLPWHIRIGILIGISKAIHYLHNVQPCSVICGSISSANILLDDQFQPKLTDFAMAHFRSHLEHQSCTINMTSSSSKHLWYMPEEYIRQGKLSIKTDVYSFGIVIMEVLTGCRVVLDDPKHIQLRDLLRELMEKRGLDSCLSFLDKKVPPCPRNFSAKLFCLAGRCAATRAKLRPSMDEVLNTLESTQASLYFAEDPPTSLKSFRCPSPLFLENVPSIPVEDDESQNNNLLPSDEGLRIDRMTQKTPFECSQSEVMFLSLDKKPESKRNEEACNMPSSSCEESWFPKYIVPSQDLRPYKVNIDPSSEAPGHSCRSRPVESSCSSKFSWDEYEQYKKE
UniProt Q9BQI3, sequence (whole entry, looked up): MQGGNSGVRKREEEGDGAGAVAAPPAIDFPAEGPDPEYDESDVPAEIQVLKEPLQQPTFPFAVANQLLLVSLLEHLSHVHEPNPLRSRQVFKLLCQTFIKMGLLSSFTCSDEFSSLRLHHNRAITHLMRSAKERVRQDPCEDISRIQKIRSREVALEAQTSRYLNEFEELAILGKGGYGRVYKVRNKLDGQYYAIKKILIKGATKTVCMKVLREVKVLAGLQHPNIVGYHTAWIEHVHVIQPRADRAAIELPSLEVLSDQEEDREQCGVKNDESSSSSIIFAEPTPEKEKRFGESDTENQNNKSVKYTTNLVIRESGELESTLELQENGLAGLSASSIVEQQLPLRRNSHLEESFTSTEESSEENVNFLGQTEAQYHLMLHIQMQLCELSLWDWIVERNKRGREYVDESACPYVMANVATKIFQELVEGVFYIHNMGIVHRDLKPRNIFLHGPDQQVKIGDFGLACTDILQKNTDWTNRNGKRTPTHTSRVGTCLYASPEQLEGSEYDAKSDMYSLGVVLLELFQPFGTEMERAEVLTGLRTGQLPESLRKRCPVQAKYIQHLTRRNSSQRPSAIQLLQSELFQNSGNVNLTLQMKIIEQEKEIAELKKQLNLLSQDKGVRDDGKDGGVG
UniProt Q8IW41, sequence (whole entry, looked up): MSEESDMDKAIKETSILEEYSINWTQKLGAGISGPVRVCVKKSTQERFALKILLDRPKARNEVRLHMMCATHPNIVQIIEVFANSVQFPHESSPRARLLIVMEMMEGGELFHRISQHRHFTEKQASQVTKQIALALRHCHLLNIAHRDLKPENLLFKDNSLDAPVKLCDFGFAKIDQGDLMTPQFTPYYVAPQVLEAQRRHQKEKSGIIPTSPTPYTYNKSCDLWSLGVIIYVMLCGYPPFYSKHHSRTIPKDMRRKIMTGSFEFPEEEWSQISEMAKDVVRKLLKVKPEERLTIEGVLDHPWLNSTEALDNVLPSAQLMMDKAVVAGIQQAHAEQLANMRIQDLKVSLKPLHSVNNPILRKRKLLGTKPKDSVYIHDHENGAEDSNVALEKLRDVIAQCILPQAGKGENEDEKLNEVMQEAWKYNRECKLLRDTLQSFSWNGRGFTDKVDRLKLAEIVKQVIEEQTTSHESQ
UniProt P11802, sequence (whole entry, looked up): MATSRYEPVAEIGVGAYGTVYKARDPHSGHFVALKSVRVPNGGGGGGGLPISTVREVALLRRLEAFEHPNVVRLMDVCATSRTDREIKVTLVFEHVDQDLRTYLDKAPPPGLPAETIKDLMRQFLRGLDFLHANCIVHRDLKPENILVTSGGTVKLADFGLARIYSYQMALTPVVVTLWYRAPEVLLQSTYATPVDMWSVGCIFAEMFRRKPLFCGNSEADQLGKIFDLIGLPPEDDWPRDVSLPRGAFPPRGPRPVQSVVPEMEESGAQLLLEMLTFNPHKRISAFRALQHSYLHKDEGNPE
UniProt P06241, sequence (whole entry, looked up): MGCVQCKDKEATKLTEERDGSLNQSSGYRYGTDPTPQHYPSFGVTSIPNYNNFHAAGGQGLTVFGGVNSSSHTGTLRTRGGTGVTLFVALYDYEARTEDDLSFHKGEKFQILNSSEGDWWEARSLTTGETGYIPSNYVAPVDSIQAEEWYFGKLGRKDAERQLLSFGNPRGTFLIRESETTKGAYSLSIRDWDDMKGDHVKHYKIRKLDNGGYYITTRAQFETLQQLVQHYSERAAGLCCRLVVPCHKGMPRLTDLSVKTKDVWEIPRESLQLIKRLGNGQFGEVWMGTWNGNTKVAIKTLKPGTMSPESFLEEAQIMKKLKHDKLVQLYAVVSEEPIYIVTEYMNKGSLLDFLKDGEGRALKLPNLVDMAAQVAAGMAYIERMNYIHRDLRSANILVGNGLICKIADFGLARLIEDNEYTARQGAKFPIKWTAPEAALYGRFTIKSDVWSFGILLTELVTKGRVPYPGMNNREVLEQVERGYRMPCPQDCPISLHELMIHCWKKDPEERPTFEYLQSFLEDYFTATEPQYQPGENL
UniProt Q96GD4, sequence (whole entry, looked up): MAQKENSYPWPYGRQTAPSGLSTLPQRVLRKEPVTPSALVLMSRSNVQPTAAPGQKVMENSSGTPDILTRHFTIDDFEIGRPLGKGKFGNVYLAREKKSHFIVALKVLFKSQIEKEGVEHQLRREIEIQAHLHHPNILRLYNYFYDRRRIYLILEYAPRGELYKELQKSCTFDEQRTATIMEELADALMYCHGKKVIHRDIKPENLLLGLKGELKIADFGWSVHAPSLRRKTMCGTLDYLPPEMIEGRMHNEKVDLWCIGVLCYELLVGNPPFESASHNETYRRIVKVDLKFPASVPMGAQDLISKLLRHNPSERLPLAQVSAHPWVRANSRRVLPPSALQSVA

Set 1
Compound: CS(=O)(=O)c1cc(C2(NC(=O)c3cncc4c3cnn4-c3ccc(F)cc3)CC2)ccn1
Read-out: cell-free assay
Technique: competition with immobilised ligand
Tested at: 1 µM
| target | remaining binding |
| --- | --- |
| CDK4 (Homo sapiens, UniProt P11802) | 83% |
| MAST1 (Homo sapiens, UniProt Q9Y2H9) | 100% |
| EPHA6 (Homo sapiens, UniProt Q9UF33) | 100% |
| GSK3A (Homo sapiens, UniProt P49840) | 70% |
| ERBB2 (Homo sapiens, UniProt P04626) | 100% |
| FYN (Homo sapiens, UniProt P06241) | 55% |

Set 2
Target: Calcium/calmodulin-dependent protein kinase type II subunit alpha (CAMK2A, Homo sapiens, UniProt Q9UQM7)
UniProt Q9UQM7, sequence (whole entry, looked up): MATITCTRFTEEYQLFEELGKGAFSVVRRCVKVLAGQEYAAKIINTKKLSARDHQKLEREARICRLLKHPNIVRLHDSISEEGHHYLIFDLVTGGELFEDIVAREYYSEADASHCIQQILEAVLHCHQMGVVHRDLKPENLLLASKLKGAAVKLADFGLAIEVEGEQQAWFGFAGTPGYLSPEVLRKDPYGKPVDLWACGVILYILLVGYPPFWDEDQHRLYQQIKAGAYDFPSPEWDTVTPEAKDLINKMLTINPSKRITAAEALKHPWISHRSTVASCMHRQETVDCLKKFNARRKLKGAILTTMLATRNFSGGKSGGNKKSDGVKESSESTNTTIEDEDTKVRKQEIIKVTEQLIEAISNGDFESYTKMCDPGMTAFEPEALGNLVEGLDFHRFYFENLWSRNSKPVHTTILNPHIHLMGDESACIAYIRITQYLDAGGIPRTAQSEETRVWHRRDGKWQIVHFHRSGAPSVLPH
Read-out: enzyme activity
Mode: inhibitor
Tested at: 10 µM
| SMILES | inhibition |
| --- | --- |
| O=C(O[C@@H]1Cc2c(O)cc(O)cc2O[C@@H]1c1cc(O)c(=O)c2c(O)c(O)cc([C@H]3Oc4cc(O)cc(O)c4C[C@H]3OC(=O)c3cc(O)c(O)c(O)c3)c2c1)c1cc(O)c(O)c(O)c1 | -142% |
| O=C1CCC[C@@H]2[C@H]3CCC[N@+]4([O-])CCC[C@@H](CN12)[C@@H]34 | 14% |
| Oc1cnc2c(O)cccc2c1 | -9% |

Set 3
Structure (SMILES): CC(C)S(=O)(=O)c1ccc2nccc(Nc3ccc4sc(C5CCCC5)nc4c3)c2c1.Cl
Read-out: kinase activity
Mode: inhibitor
Tested at: 1 µM
| target | remaining activity |
| --- | --- |
| Aurora kinase B (AURKB, Homo sapiens, UniProt Q96GD4) | 98% |
| ROCK2 (Homo sapiens, UniProt O75116) | 99% |
| CDKL4 (Homo sapiens, UniProt Q5MAI5) | 83% |
| CSNK1A1 (Homo sapiens, UniProt P48729) | 97% |

Set 4
Target: Serine/threonine-protein kinase 3 (STK3, Homo sapiens, UniProt Q13188)
UniProt Q13188, sequence (whole entry, looked up): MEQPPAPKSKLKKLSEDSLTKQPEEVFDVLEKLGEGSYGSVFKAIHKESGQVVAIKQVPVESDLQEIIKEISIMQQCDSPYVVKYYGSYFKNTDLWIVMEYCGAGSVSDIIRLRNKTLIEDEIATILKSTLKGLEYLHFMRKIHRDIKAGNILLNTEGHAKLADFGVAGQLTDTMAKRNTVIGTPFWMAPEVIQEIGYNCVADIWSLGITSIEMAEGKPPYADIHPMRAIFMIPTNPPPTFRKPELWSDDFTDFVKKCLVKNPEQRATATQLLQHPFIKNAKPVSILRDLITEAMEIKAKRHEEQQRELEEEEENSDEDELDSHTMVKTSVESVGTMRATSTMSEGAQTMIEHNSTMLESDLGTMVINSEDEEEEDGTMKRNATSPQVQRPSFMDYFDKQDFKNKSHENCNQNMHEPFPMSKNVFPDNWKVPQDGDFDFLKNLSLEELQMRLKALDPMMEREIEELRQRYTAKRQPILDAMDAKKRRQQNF
Read-out: enzyme activity
Mode: inhibitor
Tested at: 0.5 µM
Baseline: control
| Compound | remaining activity |
| --- | --- |
| Nc1[nH]nc2nc3ccccc3nc12 | 88.9% |
| COc1cc2ncnc(Nc3ccc(Oc4ccccc4)cc3)c2cc1OC | 121% |
| CC(C)[C@H](CO)Nc1nc(Nc2cc(N)cc(Cl)c2)c2ncn(C(C)C)c2n1 | 70% |
| O=C(Nc1cccc(Nc2cc(Nc3cccc(C(F)(F)F)c3)ncn2)c1)C1CC1 | 102% |
| Cn1sc(=O)n(Cc2ccccc2)c1=O | 93.2% |
| NCCNc1ncc(C(N)=O)c(Nc2cccc(C(F)(F)F)c2)n1 | 98% |
| O=S(=O)(c1cccc2cnccc12)N1CCCNCC1 | 90% |
| COc1ccc(CNC(=O)Nc2ncc([N+](=O)[O-])s2)cc1 | 92.6% |
| Nc1ccc2ncnc(NCCc3ccc(Oc4ccccc4)cc3)c2c1 | 105% |
| O=C(O)c1ccc2c3c1cccc3c(=O)n1c3ccccc3nc21 | 97.1% |
| CO[C@H]1C[C@@H]2CC[C@@H](C)[C@@](O)(O2)C(=O)C(=O)N2CCCC[C@H]2C(=O)O[C@H]([C@H](C)C[C@@H]2CC[C@@H](O)[C@H](OC)C2)CC(=O)[C@H](C)/C=C(\C)[C@@H](O)[C@@H](OC)C(=O)[C@H](C)C[C@H](C)/C=C/C=C/C=C/1C | 105% |
| Oc1ccc(-c2nc(-c3ccncc3)c(-c3ccc(F)cc3)[nH]2)cc1 | 105% |
| O=c1c2ccccc2[nH]c(=S)n1CCN1CCC(=C(c2ccc(F)cc2)c2ccc(F)cc2)CC1 | 102% |
| Cc1ccc(Nc2nccc(N(C)c3ccc4c(C)n(C)nc4c3)n2)cc1S(N)(=O)=O | 95.4% |
| COc1cc2ncnc(Nc3ccc(F)c(Cl)c3)c2cc1OCCCN1CCOCC1 | 93.6% |
| O=C1NC(=O)C(c2cn(CCCO)c3ncccc23)=C1c1cnccn1 | 74.4% |

Set 5
SMILES: C[C@H]1CC[C@H](n2c3cnccc3c3cnc(Nc4ccc5c(n4)CCN(C(=O)CO)C5)nc32)CC1
Read-out: cell-free assay
Tested at: 1 µM
| target | remaining signal [%] |
| --- | --- |
| PRKG1 (Homo sapiens, UniProt Q13976) | 100 |
| MAPKAPK5 (Homo sapiens, UniProt Q8IW41) | 100 |
| IRAK3 (Homo sapiens, UniProt Q9Y616) | 12 |
| EIF2AK1 (Homo sapiens, UniProt Q9BQI3) | 100 |

Repeated from above (set 2):
| SMILES | inhibition |
| --- | --- |
| O=C(O[C@@H]1Cc2c(O)cc(O)cc2O[C@@H]1c1cc(O)c(=O)c2c(O)c(O)cc([C@H]3Oc4cc(O)cc(O)c4C[C@H]3OC(=O)c3cc(O)c(O)c(O)c3)c2c1)c1cc(O)c(O)c(O)c1 | -142% |
| O=C1CCC[C@@H]2[C@H]3CCC[N@+]4([O-])CCC[C@@H](CN12)[C@@H]34 | 14% |
| Oc1cnc2c(O)cccc2c1 | -9% |
